Measurements of several laboratories.
Lines come from different studies, so protocols differ. “And” joins repeats or separate records; there may be more than shown.
Cell line: UO-31

| SMILES | assay | setting | how to read | endpoint | result |
| --- | --- | --- | --- | --- | --- |
| CCCCN1CCN(c2ccc3[nH]c(-c4ccc5[nH]c(-c6cc(OC)c(OC)c(OC)c6)nc5c4)nc3c2)CC1 | SRB | 10 µM, 48 h | – | growth percent | 79.8% |
| C#C[C@@]1(O)[C@@H](CO)O[C@@H](n2ccc3c(N)ncnc32)[C@@H]1O | SRB | NCI-60 screen | – | TGI | 3.58 µM |
| O=C1NCCc2[nH]c(-c3ccncc3)cc21 | MTS | NCI60 panel | – | IC50 | 4.03 µM |
| Cc1cc(C)n(C(=S)[S][Au][PH](CCCCCC[PH]([Au][S]C(=S)n2nc(C)cc2C)(c2ccccc2)c2ccccc2)(c2ccccc2)c2ccccc2)n1 | cell growth, NCI-60 screen | renal cancer | – | log10 TGI | > -4 |
| Cc1cc(=O)[nH]n1-c1nc(-c2ccc(Cl)cc2)c2c(NC(=O)c3ccccc3)nnc-2[nH]1 | SRB | 10 µM, NCI60 single-dose screen | reference: untreated | cell growth | 87.6% |
| CCCCN1CCN(c2ccc3nc(-c4ccc5nc(-c6cc(OC)ccc6OC)[nH]c5c4)[nH]c3c2)CC1 | SRB | 10 µM, 48 h | – | growth percent | 78.5% |
| NNc1nc(-c2ccc(Cl)cc2)c2c(NC(=O)c3ccccc3)nnc-2[nH]1 | SRB | 10 µM, NCI60 single-dose screen | reference: untreated | cell growth | 88% |
| CCOc1ccc(-c2nc3cc(-c4nc5cc(N6CCN(C)CC6)ccc5[nH]4)ccc3[nH]2)cc1OCC | SRB | 10 µM, 48 h | – | growth percent | 98.6% |
| O=C1NC(c2ccccc2)(c2ccccc2)C(=O)N1Cc1cn(-c2cc3ccccc3oc2=O)nn1 | NCI60 single-dose screen | 10 µM | – | growth percentage | 70.2% |
| CCN(CC)c1ccc(C=NNC(=O)CSc2nc3ccccc3c(=O)n2Cc2ccc(S(N)(=O)=O)cc2)c(O)c1 | NCI five-dose screen | – | – | TGI | > 100 µM |
| C#C[C@@]1(O)[C@@H](CO)O[C@@H](n2cc(I)c3c(N)ncnc32)[C@@H]1O | SRB | NCI-60 screen | – | TGI | 3.3 µM and 3.07 µM |
| CCCN1CCN(c2ccc3[nH]c(-c4ccc5[nH]c(-c6cc(OC)c(OC)c(OC)c6)nc5c4)nc3c2)CC1 | SRB | 10 µM, 48 h | – | growth percent | 86.5% |
| CCCC(CCC)C(=O)OCc1cn(-c2c3ccccc3nc3ccccc23)nn1 | NCI60 single-dose screen | 10 µM | – | growth percentage | 85.4% |
| Cn1cncc1C1=CN(c2ncnc3[nH]cnc23)CCS1 | – | renal cancer | – | GI50 | 22.4 µM |
| CCOC(=O)CSc1nc(-c2ccc(Cl)cc2)c2c(NC(=O)c3ccccc3)nnc-2[nH]1 | SRB | 10 µM, NCI60 single-dose screen | reference: untreated | cell growth | 83.9% |
| O=c1ccn(Cc2cn(-c3cc4ccccc4oc3=O)nn2)c(=O)[nH]1 | NCI60 single-dose screen | 10 µM | – | growth percentage | 83.1% |
| CCCCN1CCN(c2ccc3[nH]c(-c4ccc5[nH]c(-c6ccc(C(F)(F)F)cc6)nc5c4)nc3c2)CC1 | SRB | 10 µM, 48 h | – | growth percent | -82.8% |
| O=C(Nc1nnc2[nH]c(=S)[nH]c(-c3ccc(Cl)cc3)c1-2)c1ccccc1 | SRB | 10 µM, NCI60 single-dose screen | reference: untreated | cell growth | 90.5% |
| CN1CCN(c2ccc3[nH]c(-c4ccc5[nH]c(-c6ccc(C(F)(F)F)cc6)nc5c4)nc3c2)CC1 | SRB | 10 µM, 48 h | – | growth percent | 105% |
| O=C(Nc1nnc2n3c(nc(-c4ccc(Cl)cc4)c1-2)SCC3=O)c1ccccc1 | SRB | 10 µM, NCI60 single-dose screen | reference: untreated | cell growth | 89.9% |

Some of these lines once more:
| SMILES | assay | setting | how to read | endpoint | result |
| --- | --- | --- | --- | --- | --- |
| CCOc1ccc(-c2nc3cc(-c4nc5cc(N6CCN(C)CC6)ccc5[nH]4)ccc3[nH]2)cc1OCC | SRB | 10 µM, 48 h | – | growth percent | 98.6% |
